# Experimental data collected from several papers.
# Compare with care: the assays were run in different laboratories. ± gives the spread as reported.
SMILES,assay,system,conditions,scale,quantity,value
Cc1cc2c(cc1C1(c3ncc(C(=O)O)cn3)CC1)C(C)(C)CCC2(C)C,"RNA sequencing, refers to: Cyp26b1 mRNA","rat, brain","dose not given, 24 h, single dose",relative to: vehicle,log2 fold change,-0.07
COc1ccc(C2CC(c3ccc(C)cc3)=Nc3ccccc3S2)cc1 (centres unmarked),,"Wistar rat, STZ-induced diabetes","oral, 10 mg/kg once daily, day 1",,body weight,191 ± 4.11 g
COC(=O)N1c2ccc3c(nc(Cc4ccccc4)n3[C@@H]3CCC[C@@H](C(=O)O)C3)c2CC[C@@H]1C,,"mouse, breast cancer PDX","oral, 50 mg/kg, 4 days/week, 45 days",,responding TNBC AR+ xenografts,50%
CCc1nc(-c2ccc(-c3ccc(CCC(N)(CO)CO)cc3)cc2)co1,phosphorylation,rat whole blood,"60 min, 37 °C, up to 100 µM",,Km,65.1 ± 11.5 µM
Nc1ncnc2c1sc1sc3c(N)ncnc3c12,ABTS,,concentration not given,,radical scavenging,78%
CC(C)CN(CC(C)C)C(=O)/C=C/C=C/c1ccc2c(c1)OCO2,,C57BL/6N mice,"ip, 10 mg/kg, 30 min before PTZ, together with: PTZ iv infusion",,PTZ seizure threshold,47.6 ± 3.4 mg/kg PTZ
COc1ccc2c(c1)c(CC(=O)OCC(=O)OC(C)(C)C)c(C)n2C(=O)c1ccc(Cl)cc1,hot plate test,BALB/c mice,"100 mg/kg, 120 min",,latency of nociceptive response,16.6 ± 1.34 s
C=C1C[C@@]23CC[C@H]4[C@@](C)(CCC[C@@]4(C)C(=O)O[C@@H]4O[C@H](CO)[C@@H](O)[C@H](O)[C@H]4O)[C@@H]2CC[C@]1(O[C@@H]1O[C@H](CO[C@H]2O[C@H](CO)[C@@H](O)[C@H](O)[C@H]2O)[C@@H](O)[C@H](O)[C@H]1O[C@@H]1O[C@H](CO)[C@@H](O)[C@H](O)[C@H]1O)C3,"qPCR, refers to: Fgf21","C57BL/6N mice, high-fat diet, brown adipose tissue","drinking water, 0.2 g/L, 16 weeks",,mRNA level,increased
CC1(CN)CCN(c2cnc(Sc3cccc(Cl)c3Cl)c(N)n2)CC1,"qPCR, refers to: Il23a and inflammatory factors","imiquimod psoriasis mice, back skin",dose not given,,mRNA level,inhibited
C[N+](C)(CF)CCO,aggregometry,mouse platelet-rich plasma,"20 µM, together with: with or without ADP",,platelet aggregation,no effect
COc1c2c(cc3oc(CO)cc(=O)c13)O[C@H](C(C)(C)O)C2,analgesia,mouse,"oral, 4 mg/kg, 1.5 h",,hot plate latency,14.8 ± 0.69 s
C=CC(=O)N1C[C@H](C)N(c2nc(OC[C@@]34CCCN3C[C@H](F)C4)nc3c(F)c(-c4ccc(F)c5sc(N)c(C#N)c45)c(C(F)(F)F)cc23)C[C@H]1C,refers to: pERK,"mouse, MIA PaCa-2 Matrigel plug",single dose,,IC50,85 nM
C=C(c1ccc(C(=O)O)c(F)c1)c1cc2c(cc1C)C(C)(C)C=CC2(C)C,"RNA sequencing, refers to: Arl11 mRNA","rat, brain","dose not given, 24 h, single dose",relative to: vehicle,log2 fold change,-0.76
NS(=O)(=O)c1ccc(NC(=O)NN[C@@H]2O[C@H](CO)[C@@H](O)[C@H](O)[C@H]2O)cc1,,rabbit glaucoma model,"topical ocular, 2%",,duration of IOP reduction,≤ 6 h
Cc1nc(C)c(C=[N+]([O-])C(C)(C)C)nc1C,"Western blot, refers to: PGC-1α","mouse, MPTP model, substantia nigra cytosol",30 mg/kg,,protein level increase,50.1%
"CC(=O)C12NC(C)(C)CC1(C)C(=O)C1=C2c2c(c3c4n2C(C)(C)CC2=C4C4(CC(C)(C)NC(C)(C4)C2=O)CC3(C)C)C(=O)C(C)(C)N1 (single isomer, unassigned; (+))",acetic acid-induced writhing,mouse,"intraperitoneal, 0.04 mg/kg, 0.5 h, writhes counted over 30 min",,inhibition,38.4 ± 2.6%
CCCCCCCOC(=O)Cc1c(C)n(C(=O)c2ccc(Cl)cc2)c2ccc(OC)cc12,hot plate test,BALB/c mice,"50 mg/kg, 60 min",,latency of nociceptive response,15.4 ± 1.09 s
O=C([O-])CN1CCN(CC(=O)[O-])CCN(CC(=O)NC[C@H]2CC[C@H](C(=O)N[C@H](Cc3cnc4ccccc4c3)C(=O)NCCCC[C@H](NC(=O)N[C@@H](CCC(=O)O)C(=O)O)C(=O)O)CC2)CCN(CC(=O)[O-])CC1.[64Cu+2],,"prostate cancer patients, biopsy cores",cut-off 66 CPM,,cores discordant with pathology,12.9%
CC1=C(O)C(=O)C=C2C1=CC=C1[C@@]2(C)CC[C@@]2(C)[C@@H]3C[C@](C)(C(=O)NCCOCCOCCOCCOCC(=O)N[C@H](C(=O)N4C[C@H](O)C[C@H]4C(=O)N[C@@H](C)c4ccc(-c5scnc5C)cc4)C(C)(C)C)CC[C@]3(C)CC[C@]12C,flow cytometry,"mouse, B16-F10 melanoma model, spleen and blood","ip, 2 doses of 1.8 mg/kg",,B cells,no effect
COc1cc2c(cc1OC)-c1cc3ccc(OC)c(OC)c3c[n+]1CC2,,"rat, STZ-induced diabetic, serum","oral, 12 mg/kg, day 28",,AST activity,70.9 ± 2.11 U/L
Cc1cnc(C(=O)N[C@@H](Cc2cn(Cc3ccccc3)cn2)C(=O)N2CCC[C@H]2C(N)=O)cn1,,Swiss albino mice,"iv, 10 µmol/kg, together with: pentobarbital 50 mg/kg ip",relative to: control,sleeping time reduction,45.5%
CC(C)c1cnc(-c2cc(Cl)ccc2F)cc1Nc1ccncc1C(=O)NC(CO)CO,refers to: pSMAD2,"4T1 tumour-bearing mouse, tumour","10 mg/kg twice daily, 0 to 8 h average",relative to: vehicle,inhibition,23%
Cc1ccc(S(=O)(=O)N(CCc2nnc(S)n2N)c2ccc(Cl)cc2)cc1,seizure,maximal electroshock model,200 mg/kg,,protection,33%
CN1C[C@H](c2cccc(C(F)(F)F)c2)[C@@H](C(=O)Nc2ccccc2F)C1=O,,whole plants,concentration not given,,herbicidal activity,active
COc1ccc(C2CC(c3ccc(C)cc3)=Nc3ccccc3S2)cc1OC (centres unmarked),,"Wistar rat, STZ-induced diabetes","oral, 10 mg/kg once daily, day 1",,body weight,188 ± 4.61 g
O=C(NC1CCCCC1)C(c1cncs1)N(C(=O)CCl)c1ccc(F)cc1 (racemic),competitive ABPP,MDA-MB-435 soluble proteome,"5 µM, together with: CA-Rh probe",,off-target molecular weight,38 kDa
CC(C)[C@H](NC(=O)CN)C(=O)N[C@@H](CCCCN)C(=O)NCC(=O)N[C@@H](CC(=O)O)C(=O)N[C@@H](CCCCN)C(=O)NCC(=O)N[C@@H](CC(N)=O)C(=O)N1CCC[C@H]1C(=O)NCC(=O)N[C@@H](Cc1c[nH]c2ccccc12)C(=O)N1CCC[C@H]1C(=O)NCC(=O)N[C@@H](C)C(=O)N1CCC[C@H]1C(=O)O,,"B104 neuroblastoma, rat","100 µg/mL coating, peptide-coated plates",,spreading cells,20%
COc1ccc(-c2cc(C(=O)Nc3cccc(Cl)c3C)no2)cc1O,"membrane potential, rhodamine uptake",isolated mouse liver mitochondria,,,EC50,> 100000 nM
O=c1[nH]c2ccccc2n1CCCCCN1CCN(c2ccc(F)cc2)CC1,,mouse,"dose not given, highest dose tested, together with: acetic acid",,inhibition of writhing,≤ 87%
CN1Cc2c(Cl)cc(Cl)cc2C(c2cccc(S(=O)(=O)NCCOCCOCCOCCNC(=O)C(O)C(O)C(=O)NCCOCCOCCOCCNS(=O)(=O)c3cccc(C4CN(C)Cc5c(Cl)cc(Cl)cc54)c3)c2)C1 (centres unmarked),,"Sprague Dawley rat, stool",10 mg/kg,,stool water increase,56%
CCCCCCCCCn1cc(C(N)(CO)CO)nn1,,"APP/PS1 mouse, cortex, hippocampus",dose not given,relative to: PBS,LC3-II and p62 levels,decreased
CSCC[C@@H]1NC(=O)[C@H](C)NC(=O)[C@H]([C@@H](C)O)NC(=O)CNC(=O)[C@H](CC(C)C)NC(=O)[C@H](CCC(N)=O)NC(=O)[C@H](CCCNC(=N)N)NC(=O)[C@@H]2CSSC[C@@H]3NC(=O)[C@@H]4CCCN4C(=O)[C@H](C(C)C)NC(=O)[C@H](CCC(N)=O)NC(=O)[C@H](CCC(N)=O)NC(=O)CNC(=O)[C@H](CC(C)C)NC(=O)[C@@H]4CSSC[C@H](NC(=O)[C@H]([C@@H](C)O)NC(=O)[C@H](C)NC(=O)[C@H](CSSC[C@@H](C(=O)N[C@@H](CO)C(=O)N[C@@H](CCC(N)=O)C(=O)N[C@H](C(N)=O)[C@@H](C)O)NC(=O)[C@@H]5CCCN5C(=O)[C@H](CC(N)=O)NC1=O)NC(=O)[C@@H]1CCCN1C(=O)[C@H](CC(=O)O)NC(=O)[C@H](CSSC[C@H](NC(=O)[C@H](CCC(N)=O)NC(=O)[C@H](CCC(N)=O)NC(=O)[C@H](CO)NC(=O)[C@@H](N)CO)C(=O)N[C@@H](C(C)C)C(=O)N[C@@H](CCCNC(=N)N)C(=O)N[C@@H](CC(C)C)C(=O)N[C@@H](Cc1c[nH]cn1)C(=O)N[C@@H](CCC(=O)O)C(=O)N[C@@H](CO)C(=O)N4)NC3=O)C(=O)N[C@@H](Cc1ccc(O)cc1)C(=O)N[C@H]1CSSC[C@H](NC(=O)[C@H](Cc3ccccc3)NC(=O)[C@H](C)NC(=O)[C@H](CC(N)=O)NC(=O)[C@H](Cc3ccccc3)NC(=O)[C@H](Cc3ccccc3)NC(=O)[C@H](CCCNC(=N)N)NC1=O)C(=O)N[C@@H](Cc1ccc(O)cc1)C(=O)N2,,"Long-Evans rat, male","intracerebroventricular, 1.0 nmol, 5 days",,body weight change,-6.09 ± 5 g
Cc1cc(=O)[nH]c2ccc(OCCCC(=O)N3CCOCC3)cc12,,"rat, isolated spontaneously beating atria",100 µM,relative to: baseline,contraction rate increase,23 ± 6%
CC/C=C\C/C=C\C/C=C\C/C=C\C/C=C\CCCCOC(CC)C(=O)O (centres unmarked),,"APOE*3Leiden.CETP mice, high-fat/cholesterol diet","dose not given, 20 weeks",relative to: control,hepatic diacylglycerols,decreased
C[C@@H](NC(=O)Cc1ccc(Cl)c(SC2C(=O)CC(c3c(Cl)cccc3Cl)CC2=O)c1)c1cccc2ccccc12 (some centres unmarked),flow cytometry,"C57BL/6 mice, B16-F10 melanoma allograft, tumour","intratumoral, 50 mg/kg/day, 7 days",,IFN-γ+ CD8+ T cells,no effect
COC(=O)[C@H](CSSC(C)(C)[C@H](NC(=O)[C@H](CCC(=O)NC[C@H](O)[C@@H](O)[C@H](O)[C@H](O)CO)NC(=O)[C@H](CCC(=O)O)NC(=O)[C@H](CCC(=O)NC[C@H](O)[C@@H](O)[C@H](O)[C@H](O)CO)NC(=O)[C@H](CCC(=O)O)NC(=O)[C@H](CCC(=O)NC[C@H](O)[C@@H](O)[C@H](O)[C@H](O)CO)NC(=O)CC[C@H](NC(=O)c1ccc(NCc2cnc3nc(N)[nH]c(=O)c3n2)cc1)C(=O)O)C(=O)O)NC(=O)CC[C@H](NC(=O)c1ccc(NCc2cnc3nc(N)nc(N)c3n2)cc1)C(=O)O,refers to: bone resorption,"Lewis rat, adjuvant-induced arthritis",500 nmol/kg twice weekly × 2,direction not given,histological score decrease,93%
CC[C@H](C)[C@@H]1NC(=O)[C@H](Cc2ccc(O)cc2)NC(=O)[C@@H](N)CSSC[C@@H](C(=O)N2CCC[C@H]2C(=O)N[C@@H](CCCCNC(=O)COCCOCCNC(=O)COCCOCCNC(=O)CC[C@H](NC(=O)CC[C@H](NC(=O)CCCCCCCCCCCCCCCCC(=O)O)C(=O)O)C(=O)O)C(=O)NCC(N)=O)NC(=O)[C@H](CC(N)=O)NC(=O)[C@H](CCC(N)=O)NC1=O,,"C57BL/6 mice, diet-induced obese","subcutaneous, 2 µmol/kg daily, 14 days",,cumulative food intake,27 ± 1 g
C[C@@H]1Cc2c([nH]c3ccccc23)[C@@H](c2c(F)cc(/C=C/C(=O)O)cc2F)N1C12CC(C1)C2,,patients ER+ advanced breast cancer,"dose not given, monotherapy",,overall response rate,5%
C=C(c1ncc(C(=O)O)cn1)c1cc2c(cc1C)C(C)(C)CCC2(C)C,"RNA sequencing, refers to: Mta2","rat, brain","dose not given, 24 h",relative to: vehicle,log2 fold change,-1.36
Cn1cnc(C[C@H](NC(=O)c2nccnc2N)C(=O)N2CCC[C@H]2C(N)=O)c1,,Swiss albino mice,"iv, 10 µmol/kg, together with: pentobarbital 50 mg/kg ip",,sleeping time,31.5 ± 6.7 min
Cc1cc(O)c(C=O)c2c1C(=O)Oc1c(CO)c(O)c3c(c1O2)C(O)OC3=O (centres unmarked),copulatory behaviour test,"rat, male, streptozotocin-induced diabetes","5 mg/kg, day 63",,Intromission latency,895 ± 32.9 s
